# Measurements of several laboratories.
# Each line is one published result; not all experiments were run side by side. Numbers after ± are the reported error.
# Target: mushroom tyrosinase
SMILES,observed,action,technique,together with,IC50
Cc1cc(O)cc2c1C(=O)c1c(cc3oc(=O)cc(-c4ccccc4)c3c1O)C2=O,enzyme activity,,,L-DOPA,> 100 µg/mL
O=C(/C=C\c1ccc(O)cc1)NCCCCN(CCCNC(=O)/C=C/c1ccc(O)cc1)C(=O)/C=C\c1ccc(O)cc1,enzyme activity,inhibitor,,L-DOPA,13.6 µM
Cc1cc(O)c2c(c1)C(=O)c1cc3oc(=O)cc(C)c3c(O)c1C2=O,enzyme activity,,,L-DOPA,> 100 µg/mL
O=C1c2ccccc2C(=O)c2c1ccc1c2C(C(=O)Nc2ccc(Cl)cc2)C(=O)C1c1ccccc1 (stereo not drawn),,inhibitor,,L-DOPA substrate,> 100 µg/mL
COc1ccc(C2SCC(CO)S2)cc1OC (stereo not drawn),enzyme activity,inhibitor,dopachrome absorbance,L-tyrosine,17 ± 2.99 µM
Oc1ccc(Sc2ccc(O)cc2)cc1,,,,L-tyrosine,102 µM
OCC1CSC(c2ccc(O)cc2O)S1 (stereo not drawn),enzyme activity,inhibitor,dopachrome absorbance,L-tyrosine,13.9 ± 1.76 µM
c1ccc(CSCc2ccccc2)cc1,,,,L-tyrosine,> 2400 µM
COc1c2c(cc3oc(=O)cc(-c4ccc(O)cc4)c13)C(=O)c1cc(C)cc(O)c1C2=O,enzyme activity,,,L-DOPA,61.96 ± 0.48 µg/mL
O=C1c2ccccc2C(=O)c2c1ccc1c2C(C(=O)Nc2ccccc2)C(=O)C1c1ccccc1 (stereo not drawn),,inhibitor,,L-DOPA substrate,80.2 ± 1.36 µg/mL
COc1c2c(cc3oc(=O)cc(C)c13)C(=O)c1cc(C)cc(O)c1C2=O,enzyme activity,,,L-DOPA,> 100 µg/mL
O=C1c2ccccc2C(=O)c2c1ccc1c2C(C(=O)NCc2ccccc2)C(=O)C1c1ccccc1 (stereo not drawn),,inhibitor,,L-DOPA substrate,99.98 ± 0.01 µg/mL

# For quick reference, copied from above:
SMILES,observed,action,technique,together with,IC50
Oc1ccc(Sc2ccc(O)cc2)cc1,,,,L-tyrosine,102 µM
